Literature values, collected from citations in different studies.
± gives the spread as reported.
ABCB1: ATP-dependent translocase ABCB1 (ABCB1, Homo sapiens, UniProt P08183)
UniProt P08183, sequence (whole entry, looked up): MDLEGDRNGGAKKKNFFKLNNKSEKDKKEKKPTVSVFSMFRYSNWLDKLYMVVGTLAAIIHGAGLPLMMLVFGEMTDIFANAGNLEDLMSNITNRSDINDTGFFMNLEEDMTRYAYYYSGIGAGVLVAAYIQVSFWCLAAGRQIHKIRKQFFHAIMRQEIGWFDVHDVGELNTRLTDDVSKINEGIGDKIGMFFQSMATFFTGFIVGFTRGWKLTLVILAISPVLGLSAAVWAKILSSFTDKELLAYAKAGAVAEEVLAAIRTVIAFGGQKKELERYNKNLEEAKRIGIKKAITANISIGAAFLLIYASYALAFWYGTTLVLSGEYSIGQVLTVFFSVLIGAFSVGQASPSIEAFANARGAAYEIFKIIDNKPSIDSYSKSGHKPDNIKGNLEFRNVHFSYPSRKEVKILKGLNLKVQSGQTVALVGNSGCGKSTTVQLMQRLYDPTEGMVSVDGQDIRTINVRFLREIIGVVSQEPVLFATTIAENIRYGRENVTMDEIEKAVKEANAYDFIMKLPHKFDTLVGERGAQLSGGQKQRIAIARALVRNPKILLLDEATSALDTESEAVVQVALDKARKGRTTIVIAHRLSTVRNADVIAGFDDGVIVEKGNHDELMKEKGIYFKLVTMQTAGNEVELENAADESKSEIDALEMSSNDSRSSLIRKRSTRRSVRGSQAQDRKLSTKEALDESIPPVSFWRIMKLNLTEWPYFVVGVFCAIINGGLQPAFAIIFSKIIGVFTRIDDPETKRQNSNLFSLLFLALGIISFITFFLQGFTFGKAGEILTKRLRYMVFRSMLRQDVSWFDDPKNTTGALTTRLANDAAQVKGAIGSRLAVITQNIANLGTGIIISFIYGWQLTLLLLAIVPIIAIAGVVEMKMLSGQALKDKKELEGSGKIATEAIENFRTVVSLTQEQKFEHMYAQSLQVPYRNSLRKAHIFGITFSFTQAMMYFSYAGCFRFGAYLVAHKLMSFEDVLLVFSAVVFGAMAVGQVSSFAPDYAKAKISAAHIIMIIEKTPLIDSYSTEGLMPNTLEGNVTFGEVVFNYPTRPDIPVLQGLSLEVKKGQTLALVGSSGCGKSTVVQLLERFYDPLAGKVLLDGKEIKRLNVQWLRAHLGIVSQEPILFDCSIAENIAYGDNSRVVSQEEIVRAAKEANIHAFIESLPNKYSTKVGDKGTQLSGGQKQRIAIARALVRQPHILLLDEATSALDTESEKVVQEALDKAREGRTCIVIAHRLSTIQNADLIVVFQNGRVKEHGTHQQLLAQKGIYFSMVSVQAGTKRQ
CYP2C9: Cytochrome P450 2C9 (CYP2C9, Homo sapiens, UniProt P11712)
UniProt P11712, sequence (whole entry, looked up): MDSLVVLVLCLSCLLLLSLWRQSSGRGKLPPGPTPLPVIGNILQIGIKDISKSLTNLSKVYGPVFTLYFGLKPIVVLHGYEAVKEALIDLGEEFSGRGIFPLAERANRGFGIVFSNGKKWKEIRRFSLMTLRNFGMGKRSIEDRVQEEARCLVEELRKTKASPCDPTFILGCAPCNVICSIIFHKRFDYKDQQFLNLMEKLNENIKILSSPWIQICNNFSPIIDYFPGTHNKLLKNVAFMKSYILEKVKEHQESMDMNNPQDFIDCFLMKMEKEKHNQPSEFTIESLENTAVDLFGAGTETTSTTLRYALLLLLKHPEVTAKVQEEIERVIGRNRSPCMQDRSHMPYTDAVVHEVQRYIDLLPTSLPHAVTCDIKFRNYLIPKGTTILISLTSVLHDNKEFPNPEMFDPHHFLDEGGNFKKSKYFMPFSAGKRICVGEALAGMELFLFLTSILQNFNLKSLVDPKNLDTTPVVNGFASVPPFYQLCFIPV

SMILES	target	test	test system	setting	scale	quantity	result
CN1CCC(C)(C)c2cc3c(-c4ccc(C(=O)N5CCCCC5)s4)c4ccc(=[N+](C)C)cc-4sc3cc21	ABCB1	refers to: cell-associated dye	–	–	reference: with over without P-gp inhibitor	cellular dye accumulation ratio	5.2
O=C(O)c1cc2cc(O)ccc2n1Cc1ccc(Cl)c(C(F)(F)F)c1	human BSEP	bile acid transport	–	–	–	IC50	94 µM
CN1CCC(C)(C)c2cc3c(-c4ccc(C(=S)N5CCCCC5)s4)c4ccc(=[N+](C)C)cc-4sc3cc21	ABCB1	substrate	–	concentration not given, with inhibitor	–	cell-associated fraction	62 ± 1%
CC(=O)N1CCC(NC(=O)NC23CC4CC(C)(CC(C2)c2ccccc24)C3)CC1	CYP2C9	–	–	10 µM	–	inhibition	29 ± 3%
Oc1ccc(O)c(CN(CCN(Cc2ccccn2)Cc2cc(O)ccc2O)Cc2ccccn2)c1.[Br-].[Br-].[Mn+2]	Mn(II) complex	–	–	25 °C	–	pKa	5.53
COc1ccc(Nc2nccc(-c3c[nH]nc3-c3cccnc3)n2)cc1	CYP2C9	–	–	10 µM	–	inhibition	40%
Cc1[nH]nc2c1N=C(c1ccccc1Cl)c1cnc(N3CCOCC3)cc1N2	CYP2D6	substrate, chemical inhibition	–	–	–	contribution to metabolism	24.5%
CCCCc1oc2ccccc2c1C(=O)c1cc(I)c(OCCNCC)c(I)c1	CYP2C9, human	inhibitor	–	–	reference: compound over amiodarone	potency ratio	40 to 90
O=C1C=C2CN(C(C(=O)C3CC3)c3ccccc3F)CCC2S1 (stereo not drawn)	CYP2B6	refers to: prasugrel active metabolite	in vitro	concentration not given	–	contribution to bioactivation	2 to 26%
C[C@@H](c1cc(-c2ccc(OC(F)(F)F)cc2)no1)[C@](O)(Cn1cnnn1)c1ccc(F)cc1F	CYP3A4	inhibitor	–	concentration not given	–	inhibition	no inhibition
Cc1cc(C#N)cc(C)c1Oc1nc(NC2CCN(Cc3ccc(S(N)(=O)=O)cc3)CC2)nc2ccsc12	hERG	inhibitor	–	–	–	IC50	0.13 µM
CC[C@H](C)[C@@H]1NC(=O)[C@H](CCSC)NC(=O)CCCC(=O)NCCCC[C@@H](C(N)=O)NC(=O)[C@H]([C@@H](C)O)NC(=O)CNC(=O)[C@H](C)NC(=O)[C@H](C(C)C)NC(=O)[C@H](Cc2ccccc2)NC(=O)[C@H](CCC(=O)O)NC(=O)[C@H](Cc2ccc(O)cc2)NC(=O)[C@H](Cc2c[nH]c3ccccc23)NC(=O)[C@H]([C@@H](C)O)NC1=O	Chymotrypsinogen A (Bos taurus, UniProt P00766)	–	–	–	reference: linear sequence	protease resistance	~3 fold

Repeated from above:
SMILES	target	test	test system	setting	scale	quantity	result
CCCCc1oc2ccccc2c1C(=O)c1cc(I)c(OCCNCC)c(I)c1	CYP2C9, human	inhibitor	–	–	reference: compound over amiodarone	potency ratio	40 to 90
